Measurements from different studies.
Lines come from different studies, so protocols differ. ± gives the spread as reported.

`N=C(N)NC(=N)Nc1cccc(Cl)c1` gave an IC50 of 10 µM (Plasmodium falciparum; 3D7).
With `CC(=O)O[C@H]1C=C[C@H]2[C@H]3Cc4ccc(O)c5c4[C@@]2(CCN3C)[C@H]1O5` the AUC(0-t) was 1140 ± 164 ng·h/mL (LC-MS/MS; male Sprague-Dawley rat, whole blood; intraperitoneal, 10 mg/kg of heroin, up to 180 min).
`CC(C)[C@@H](CN1CC[C@@](C)(c2cccc(O)c2)[C@@H](C)C1)NC(=O)[C@@H]1Cc2ccc(O)cc2CN1C` gave an AUC(0-t) of 1100 ng·h/mL (rat, plasma; ip, 5 mg/kg, to 168 h).
With `C#Cc1ccc2c(c1)C(c1ccccn1)=NCc1c(-c3cnco3)ncn1-2` the AUC(0-t) was 2340 ng·h/mL (Sprague Dawley rat, brain; oral, 2 mg/kg, 0 to 24 h, cassette dosing).
`Cc1cc(C)nc(Nc2ncc(C(=O)NCCc3c(C)[nH]c4ccccc34)cn2)c1` gave an AUC(0-t) of 32300 ng·h/mL (male rat, plasma; oral, 1000 mg/kg/day, day 7).
`CCC[C@@](N)(CO)CCc1ccc(OCCCCCC(C)C)cc1` gave an AUC(0-t) of 16.8 µM·h (male Sprague-Dawley rat, plasma; oral, 100 mg/kg).
With `COc1ccc(C(=O)NCc2cccnc2)cc1C(=O)NCc1cccnc1` the IC50 was 3.16 µM (Plasmodium falciparum; 7G8).
For `COc1ccc2c(c[n+](C)c3c4cc5c(cc4ccc23)OCO5)c1OC`, the AUC(0-t) was 60100 ng·h/mL (LC-MS/MS; rat, plasma; dose not given).
`Cc1ccc(S(=O)(=O)Nc2c(N[C@H]3CC[C@H](NC(=O)Nc4ccc(F)c(Cl)c4)CC3)c(=O)c2=O)cc1` has an AUC(0-t) of 0.23 µM·h (rat, plasma; oral, 20 mg/kg).
`COC(=O)[C@@H]1[C@H]2CC[C@@H](C[C@@H]1O)N2C` gave an AUC(0-t) of 283 ± 14.3 ng·h/mL (LC-MS/MS; Sprague-Dawley rat, whole blood; intraperitoneal, 20 mg/kg of cocaine, up to 180 min).
`CC(=O)c1c(C)c2cnc(Nc3ccc(C4CCN(CCS(C)(=O)=O)CC4)cn3)nc2n(C2CCCC2)c1=O` gave an AUC(0-t) of 34800 ng·h/mL (Sprague-Dawley rat, male; oral, 60 mg/kg, day 28, repeated dosing 4 weeks).
For `CN1[C@H]2CC[C@@H]1[C@@H](C(=O)O)[C@@H](OC(=O)c1ccccc1)C2`, the AUC(0-t) was 5010 ± 190 ng·h/mL (LC-MS/MS; Sprague-Dawley rat, whole blood; intraperitoneal, 20 mg/kg of cocaine, up to 180 min).
The AUC(0-t) of `C=CC[N+]1([C@H]2C[C@H]3[C@@H]4CC[C@H]5C[C@H](O)[C@@H](N6CCOCC6)C[C@]5(C)[C@H]4CC[C@]3(C)[C@H]2OC(C)=O)CCCC1` is reported as 32.9 ng·h/mL (Sprague Dawley rat, plasma; intravenous, dose not given, with: sugammadex 5 mg/kg ODD).

Repeated from above:
`CC(=O)c1c(C)c2cnc(Nc3ccc(C4CCN(CCS(C)(=O)=O)CC4)cn3)nc2n(C2CCCC2)c1=O` gave an AUC(0-t) of 34800 ng·h/mL (Sprague-Dawley rat, male; oral, 60 mg/kg, day 28, repeated dosing 4 weeks).
